Results collected from several papers.
Compare with care: the assays were run in different laboratories. Numbers after ± are the reported error.
STING1 H232R: Stimulator of interferon genes protein (STING1, Homo sapiens, UniProt Q86WV6, H232R)
Sequence of UniProt Q86WV6 (whole entry, unmodified, looked up): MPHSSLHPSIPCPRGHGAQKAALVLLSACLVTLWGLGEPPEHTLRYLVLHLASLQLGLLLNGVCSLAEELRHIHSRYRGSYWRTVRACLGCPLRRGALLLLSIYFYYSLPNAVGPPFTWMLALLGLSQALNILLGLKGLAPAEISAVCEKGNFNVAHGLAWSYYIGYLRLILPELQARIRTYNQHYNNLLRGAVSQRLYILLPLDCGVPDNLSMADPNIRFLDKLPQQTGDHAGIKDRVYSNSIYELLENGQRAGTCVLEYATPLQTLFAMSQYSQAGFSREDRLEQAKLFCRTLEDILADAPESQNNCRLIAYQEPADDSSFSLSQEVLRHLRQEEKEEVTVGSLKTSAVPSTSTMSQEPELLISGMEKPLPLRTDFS
Sequence of UniProt O75762 (whole entry, unmodified, looked up): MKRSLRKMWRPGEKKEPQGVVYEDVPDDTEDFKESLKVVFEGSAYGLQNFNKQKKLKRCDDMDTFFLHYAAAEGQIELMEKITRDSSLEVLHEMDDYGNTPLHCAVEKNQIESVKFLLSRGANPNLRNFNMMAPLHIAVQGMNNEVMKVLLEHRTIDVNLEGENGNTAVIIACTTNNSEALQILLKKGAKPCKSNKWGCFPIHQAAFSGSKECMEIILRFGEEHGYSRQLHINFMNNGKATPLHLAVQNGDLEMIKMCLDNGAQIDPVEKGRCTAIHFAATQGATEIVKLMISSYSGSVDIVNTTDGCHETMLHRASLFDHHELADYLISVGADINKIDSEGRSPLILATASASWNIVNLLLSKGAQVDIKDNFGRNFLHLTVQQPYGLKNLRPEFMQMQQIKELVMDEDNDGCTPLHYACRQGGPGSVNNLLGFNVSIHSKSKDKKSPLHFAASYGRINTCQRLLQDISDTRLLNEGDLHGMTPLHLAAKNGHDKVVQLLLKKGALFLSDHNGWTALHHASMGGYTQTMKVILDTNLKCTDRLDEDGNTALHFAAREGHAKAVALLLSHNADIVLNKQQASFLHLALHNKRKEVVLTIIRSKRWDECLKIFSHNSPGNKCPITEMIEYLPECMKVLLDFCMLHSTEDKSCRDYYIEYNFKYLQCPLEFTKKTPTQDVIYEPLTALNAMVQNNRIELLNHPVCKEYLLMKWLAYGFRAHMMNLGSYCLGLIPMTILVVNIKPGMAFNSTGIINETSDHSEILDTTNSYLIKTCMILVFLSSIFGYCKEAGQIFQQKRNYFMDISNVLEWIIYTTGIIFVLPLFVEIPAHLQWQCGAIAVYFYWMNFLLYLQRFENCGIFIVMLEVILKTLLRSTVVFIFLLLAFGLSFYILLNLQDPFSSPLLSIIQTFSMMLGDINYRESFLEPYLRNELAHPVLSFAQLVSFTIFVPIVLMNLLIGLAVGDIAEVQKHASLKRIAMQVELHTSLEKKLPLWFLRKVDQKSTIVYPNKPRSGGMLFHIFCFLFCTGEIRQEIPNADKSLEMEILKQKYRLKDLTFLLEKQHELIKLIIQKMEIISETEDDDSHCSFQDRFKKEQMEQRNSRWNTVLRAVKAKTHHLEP
Sequence of UniProt Q92847 (whole entry, looked up): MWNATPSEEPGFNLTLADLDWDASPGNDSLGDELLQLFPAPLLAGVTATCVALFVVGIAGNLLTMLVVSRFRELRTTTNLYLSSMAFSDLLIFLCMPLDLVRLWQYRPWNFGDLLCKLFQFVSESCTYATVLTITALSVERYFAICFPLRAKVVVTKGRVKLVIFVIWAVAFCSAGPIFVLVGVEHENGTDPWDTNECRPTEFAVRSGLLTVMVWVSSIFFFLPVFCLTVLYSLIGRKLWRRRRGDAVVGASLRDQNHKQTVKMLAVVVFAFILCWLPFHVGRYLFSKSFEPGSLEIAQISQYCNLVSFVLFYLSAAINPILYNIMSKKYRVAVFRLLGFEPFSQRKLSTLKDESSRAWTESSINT
Sequence of UniProt P18089 (whole entry, looked up): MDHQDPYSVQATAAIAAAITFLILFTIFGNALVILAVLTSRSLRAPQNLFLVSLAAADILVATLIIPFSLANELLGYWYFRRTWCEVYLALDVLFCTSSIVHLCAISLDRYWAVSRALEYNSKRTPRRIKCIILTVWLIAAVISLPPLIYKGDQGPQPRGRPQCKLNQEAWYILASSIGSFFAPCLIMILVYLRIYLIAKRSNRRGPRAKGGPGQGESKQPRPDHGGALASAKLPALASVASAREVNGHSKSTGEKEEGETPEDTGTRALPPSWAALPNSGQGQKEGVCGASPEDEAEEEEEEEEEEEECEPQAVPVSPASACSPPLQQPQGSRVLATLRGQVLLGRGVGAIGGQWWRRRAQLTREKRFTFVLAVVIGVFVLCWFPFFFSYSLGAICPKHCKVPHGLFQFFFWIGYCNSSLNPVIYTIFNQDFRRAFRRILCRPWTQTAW
Sequence of UniProt P02754 (whole entry, unmodified, looked up): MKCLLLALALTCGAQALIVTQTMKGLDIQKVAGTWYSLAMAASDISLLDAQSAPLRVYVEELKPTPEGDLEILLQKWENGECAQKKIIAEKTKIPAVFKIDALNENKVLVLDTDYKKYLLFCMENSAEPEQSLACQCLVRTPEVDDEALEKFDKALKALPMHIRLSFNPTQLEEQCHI
Sequence of UniProt P47936 (whole entry, looked up): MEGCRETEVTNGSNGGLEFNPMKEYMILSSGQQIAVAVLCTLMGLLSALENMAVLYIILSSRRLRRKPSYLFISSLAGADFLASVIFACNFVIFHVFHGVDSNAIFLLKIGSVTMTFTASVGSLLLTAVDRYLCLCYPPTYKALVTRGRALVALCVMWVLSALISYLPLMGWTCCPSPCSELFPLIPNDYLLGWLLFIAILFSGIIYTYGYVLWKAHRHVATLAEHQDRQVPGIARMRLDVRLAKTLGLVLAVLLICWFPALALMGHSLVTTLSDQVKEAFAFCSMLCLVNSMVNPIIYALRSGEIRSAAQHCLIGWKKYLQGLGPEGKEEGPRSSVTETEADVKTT
Sequence of UniProt Q92633 (whole entry, unmodified, looked up): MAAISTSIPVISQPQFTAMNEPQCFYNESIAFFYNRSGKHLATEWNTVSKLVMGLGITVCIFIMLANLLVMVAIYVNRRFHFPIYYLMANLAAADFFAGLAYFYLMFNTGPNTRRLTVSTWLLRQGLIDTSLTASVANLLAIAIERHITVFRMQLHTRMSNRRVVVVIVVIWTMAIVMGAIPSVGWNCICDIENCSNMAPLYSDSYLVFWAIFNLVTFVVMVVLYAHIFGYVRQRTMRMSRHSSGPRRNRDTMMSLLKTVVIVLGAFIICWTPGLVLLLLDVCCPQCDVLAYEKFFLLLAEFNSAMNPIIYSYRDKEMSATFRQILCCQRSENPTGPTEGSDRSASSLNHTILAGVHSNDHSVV
Sequence of UniProt Q9SZU7 (whole entry, unmodified, looked up): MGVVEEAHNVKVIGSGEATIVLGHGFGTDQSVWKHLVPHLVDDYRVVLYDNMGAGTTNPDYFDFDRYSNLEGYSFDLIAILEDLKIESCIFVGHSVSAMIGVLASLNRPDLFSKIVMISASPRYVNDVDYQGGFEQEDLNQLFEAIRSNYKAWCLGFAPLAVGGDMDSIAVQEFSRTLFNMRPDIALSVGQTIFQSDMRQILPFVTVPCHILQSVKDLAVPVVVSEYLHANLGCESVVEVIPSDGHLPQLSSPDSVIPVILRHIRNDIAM

SMILES = Cn1ccc2c(N3CCN(CCCCOc4ccc5c(c4)NC(=O)CC5)CC3)cccc21; target = ADRA2B (Homo sapiens, UniProt P18089); assay = ligand displacement, radioligand; endpoint = Ki; value = 1.68 µM
SMILES = CC(C)(C)c1noc(C(=O)N[C@@H](CCNC(=O)c2ccc([N+](=O)[O-])o2)c2nc3ccccc3[nH]2)n1; target = STING1 H232R; assay = reporter gene, inhibitor; test system = THP1-Dual KI-hSTING-R232; conditions = 24 h, 1 h preincubation, added: diABZI 500 nM; endpoint = EC50; value = 14.9 µM
SMILES = O=C(O)C(Cc1c[nH]cn1)N1C(=O)c2ccc3c4ccc5c6c(ccc(c7ccc(c2c37)C1=O)c64)C(=O)N(CCN1CCCCC1)C5=O (stereo not drawn); target = human telomeric G-quadruplex DNA; assay = binding, thiazole orange displacement; conditions = pH 8; endpoint = DC50; value = 0.66 ± 0.14 µM
SMILES = O=C(C#Cc1ccccc1)N[C@@H](CCNC(=O)c1ccc([N+](=O)[O-])o1)c1nc2ccccc2[nH]1; target = STING1 H232R; assay = reporter gene, inhibitor; test system = THP1-Dual KI-hSTING-R232; conditions = 24 h, 1 h preincubation, added: diABZI 500 nM; endpoint = EC50; value = 8.7 µM
SMILES = O=C(O)C1OC(OC2C(C(=O)O)OC(OC3C(C(=O)O)OC(OC4C(C(=O)O)OC(O)C(O)C4O)C(O)C3O)C(O)C2O)C(O)C(O)C1O (stereo not drawn); target = Beta-lactoglobulin (LGB, Bos taurus, UniProt P02754, A134V/G80D); assay = isothermal titration calorimetry; conditions = pH 4.00, 37 °C, 50 mM KH2PO4; endpoint = Kd; value = 234 µM
SMILES = Cc1cccc2c1N(C(=O)n1ccnn1)CC2; target = KAI2 (Arabidopsis thaliana, UniProt Q9SZU7, S95C); assay = ITC; conditions = S95C mutant, mean; endpoint = Kd; value = 28.6 µM
SMILES = O=C1c2ccc3c4ccc5c6c(ccc(c7ccc(c2c37)C(=O)N1CCN1CCCCC1)c64)C(=O)N(CCN1CCCCC1)C5=O; target = human telomeric G-quadruplex DNA; assay = binding, thiazole orange displacement; conditions = pH 6; endpoint = DC50; value = 0.57 ± 0.12 µM
SMILES = O=C(N[C@@H](CCCCNC(=O)c1ccc([N+](=O)[O-])o1)c1nc2ccccc2[nH]1)c1ccc(-c2cncnc2)cc1; target = STING1 H232R; assay = reporter gene, inhibitor; test system = THP1-Dual KI-hSTING-R232; conditions = 24 h, 1 h preincubation, added: diABZI 500 nM; endpoint = EC50; value = 7.6 µM
SMILES = CC(=O)N1c2ccc(-c3ccc(CNC(=O)c4cn5cc(-c6cnc(N)nc6)nc(N6CCOCC6)c5n4)cc3)cc2CC[C@@H]1C; target = Bromodomain testis-specific protein, BD2 (BRDT, Homo sapiens, UniProt Q58F21); assay = binding, competition with immobilised ligand; endpoint = Kd; value = 0.069 µM
SMILES = CCCCCCCC/C=C\CCCCCCCC(=O)OCC(O)COP(=O)(O)O (stereo not drawn); target = LPAR1 (Homo sapiens, UniProt Q92633, W210A); assay = G-protein dissociation, agonist, NanoBiT; test system = human cells; endpoint = EC50; value = 0.0648 µM
SMILES = O=C(N[C@@H](CCNC(=O)c1ccc([N+](=O)[O-])o1)c1nc2ccccc2[nH]1)c1ccn(-c2ccccc2)n1; target = STING1 H232R; assay = reporter gene, inhibitor; test system = THP1-Dual KI-hSTING-R232; conditions = 24 h, 1 h preincubation, added: diABZI 500 nM; endpoint = EC50; value = 18 µM
SMILES = O=C(NC[C@@H](Cc1ccc(F)cc1)N1CCC(O)(C(F)(F)F)CC1)C1(c2ccc(Cl)cc2)CCCC1; target = TRPA1 (Homo sapiens, UniProt O75762, L881M); endpoint = EC50; value = 0.047 µM
SMILES = O=C(O)C(Cc1c[nH]cn1)N1C(=O)c2ccc3c4ccc5c6c(ccc(c7ccc(c2c37)C1=O)c64)C(=O)N(C(Cc1c[nH]cn1)C(=O)O)C5=O (stereo not drawn); target = human telomeric G-quadruplex DNA; assay = binding, thiazole orange displacement; conditions = pH 8; endpoint = DC50; value = > 2.5 µM
SMILES = Cc1nn(-c2cccc(N)c2)c(=O)c2cnc(Nc3ccc(N4CCNCC4)cc3)nc12; target = SYK (Homo sapiens, UniProt P43405); assay = enzyme activity, inhibitor; endpoint = IC50; value = > 10 µM
SMILES = O=C(Nc1ccc(-c2ccccc2)cc1)N[C@@H](CCNC(=O)c1ccc([N+](=O)[O-])o1)c1nc2ccccc2[nH]1; target = STING1 H232R; assay = reporter gene, inhibitor; test system = THP1-Dual KI-hSTING-R232; conditions = 24 h, 1 h preincubation, added: diABZI 500 nM; endpoint = EC50; value = 4.6 µM
SMILES = CCOC(=O)C(CC)(CCCSCCOCCOCCNC(=O)OC(C)(C)C)NC(=O)c1ccc(C2CC2)c(Cc2ccc(F)cc2)n1 (racemic); target = Cnr2 (Mus musculus, UniProt P47936); assay = ligand displacement, radioligand; conditions = cell membranes; endpoint = Ki; value = 0.213 µM
SMILES = O=C(N[C@@H](CCCCNC(=O)c1ccc([N+](=O)[O-])o1)c1nc2ccccc2[nH]1)c1ccc(-c2ccccc2)nc1; target = STING1 H232R; assay = reporter gene, inhibitor; test system = THP1-Dual KI-hSTING-R232; conditions = 24 h, 1 h preincubation, added: diABZI 500 nM; endpoint = EC50; value = 3.3 µM
SMILES = COc1ccc(C(=O)c2c(C(=O)NCCCN(C)C)oc3ccc(Cl)cc3c2=O)cc1OC; target = GHSR (Homo sapiens, UniProt Q92847); assay = Gαi2 dissociation, agonist, TRUPATH BRET; test system = HEK293T; endpoint = EC50; value = 2.51 µM

Some of these lines once more:
SMILES = Cc1nn(-c2cccc(N)c2)c(=O)c2cnc(Nc3ccc(N4CCNCC4)cc3)nc12; target = SYK (Homo sapiens, UniProt P43405); assay = enzyme activity, inhibitor; endpoint = IC50; value = > 10 µM
SMILES = O=C(Nc1ccc(-c2ccccc2)cc1)N[C@@H](CCNC(=O)c1ccc([N+](=O)[O-])o1)c1nc2ccccc2[nH]1; target = STING1 H232R; assay = reporter gene, inhibitor; test system = THP1-Dual KI-hSTING-R232; conditions = 24 h, 1 h preincubation, added: diABZI 500 nM; endpoint = EC50; value = 4.6 µM
